Assay results of several laboratories.
Numbered parts are unrelated; each lists some results of a single study. Changes are numbered by the printed parent chain.

Sample 1
Target: Histone acetyltransferase KAT6A, both winged helices, GST fusion (KAT6A, Homo sapiens, UniProt Q92794, residues 1-181)
Technique: protein binding microarray
Molecule type: double-stranded DNA, one strand shown
Medium: in vitro
Tested at: not given
Notes: 8-mer, flanks averaged, mean of 2 arrays, mostly near background
Reference: not given
Direction: higher = stronger binding
Endpoint: E-score
Construct (chain): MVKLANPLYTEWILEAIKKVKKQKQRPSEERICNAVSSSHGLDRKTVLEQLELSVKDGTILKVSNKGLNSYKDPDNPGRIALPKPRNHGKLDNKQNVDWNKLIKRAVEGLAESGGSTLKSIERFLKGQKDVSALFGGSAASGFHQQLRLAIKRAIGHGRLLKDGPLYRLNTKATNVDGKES
CCCCTCTC: -0.247
ATTTAATC: -0.0537
GATAAATA: -0.00392
CACCAACC: -0.0855
ATTCTATG: -0.0764
GATTCAGA: -0.152
GCGCTTAC: 0.35
GATGTGCA: -0.186
GTGAGAGA: -0.186
AACTCCGC: 0.096
TCGGGTAA: 0.0902
ACATAGCT: -0.132
AAAGATGC: -0.0784
AAATTGCT: -0.0896
ATCGCAAA: 0.108
AAGACTCC: -0.0631
CCTTATTC: -0.199
CCGCAGAA: 0.289
AGACAGCA: -0.13
ATACGCGG: 0.242
CAGTAGCA: -0.072
ATGGCCGA: 0.0709
ATACCTGG: -0.2
GCAATCCC: 0.121

Sample 2
Target: ABI1, truncated, D143A, DHFR fusion (Arabidopsis thaliana)
Technique: DHFR PCA, deep sequencing
Medium: yeast
Notes: methotrexate growth selection, single substitutions
Together with: (+)-ABA 58 µM
Reference: wild-type fitted maximum
Direction: higher = stronger binding
Endpoint: relative binding score
Starting sequence: PYL1, truncated, DHFR fusion (Arabidopsis thaliana); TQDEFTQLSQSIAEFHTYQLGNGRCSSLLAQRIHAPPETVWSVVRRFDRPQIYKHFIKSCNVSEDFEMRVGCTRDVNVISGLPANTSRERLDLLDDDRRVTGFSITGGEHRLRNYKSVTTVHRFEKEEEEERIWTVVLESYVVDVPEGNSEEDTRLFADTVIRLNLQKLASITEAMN
P37Y: 7.4%
G71E: 18.9%
C25A: 87.7%
S63N: 86.7%
G108T: 0.734%
F5I: 82.4%
V78F: 62.2%
C25S: 59.6%
N22I: 88.1%
D65I: 51.3%

Sample 3
Target: CCND1, cyclin fold, Cln2 fusion (human)
Technique: yeast growth competition, sequencing
Medium: yeast
Notes: weak parent motif
Reference: not given
Direction: higher = stronger binding
Endpoint: normalised enrichment score
Starting sequence: E2F7 docking peptide (human); SSAQRRLEIPSGG
SSAQRRLAIPSGG [E8A]: -0.0574
SSAQARAEIPSGG [R5A L7A]: 0.26
SSAQARLEIPSGG [R5A]: 0.832
SSAARRLEIPSGG [Q4A]: 0.277
SSAQRRLEIPSAG [G12A]: -0.347
SSAQKRLEIPSGG [R5K]: -0.318
SSAQKRLELPSGG [R5K I9L]: -0.0698
SSAQKRLEFPSGG [R5K I9F]: 0.868
SAAQRRLEIPSGG [S2A]: -0.204
SSAQRRAEIPSGG [L7A]: -0.0434

Sample 4
Target: Interferon regulatory factor 3, full length, phosphomimetic (IRF3, Homo sapiens, UniProt Q14653, residues 1-427, S386D/S396D/S398D/S402D/T404D/S405D)
Technique: protein-binding microarray
Molecule type: double-stranded DNA, one strand shown
Medium: in vitro
Tested at: 2540 nM top
Notes: 60-bp whole probe
Together with: salmon DNA 0.4 mg/ml
Reference: random background probes
Direction: higher = stronger binding
Endpoint: fitted relative affinity
All sequences stand within: GCCTAGCAC … GTCTTGATTCGCTTGACGCTGCTG
Residues (chain): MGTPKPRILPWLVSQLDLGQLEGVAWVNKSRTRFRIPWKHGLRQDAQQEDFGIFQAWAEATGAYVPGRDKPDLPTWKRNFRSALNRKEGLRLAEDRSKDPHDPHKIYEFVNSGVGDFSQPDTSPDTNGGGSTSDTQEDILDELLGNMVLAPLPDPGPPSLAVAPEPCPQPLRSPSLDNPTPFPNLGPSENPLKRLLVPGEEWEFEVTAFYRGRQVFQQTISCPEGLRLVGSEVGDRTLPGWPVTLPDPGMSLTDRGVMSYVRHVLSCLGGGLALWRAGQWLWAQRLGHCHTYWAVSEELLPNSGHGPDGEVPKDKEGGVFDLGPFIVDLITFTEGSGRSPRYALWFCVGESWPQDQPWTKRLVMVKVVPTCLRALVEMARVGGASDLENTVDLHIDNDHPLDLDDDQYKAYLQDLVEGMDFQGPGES
CTAGAACTGAGTTTCGATTAGTGCTAG: 2.58 z-score
GACGGTATCCGTTTCCTGACGTGCTAG: 6.13 z-score
TCAGGTTGAACATGAACACTGTGCTAG: -0.244 z-score
GACGATTTCAGACTGGAAACGTGCTAG: 1.18 z-score
GACGGACTGCTTCTCGTGACGTGCTAG: -0.283 z-score
GACGGACTGCTCATCCTGACGTGCTAG: -0.322 z-score
TTAGGTTCCGGTTTCGGTCAGTGCTAG: 7.12 z-score
AGTCTCTTCTGGGACTCATGGTGCTAG: 0.363 z-score
TTAGGTTGCGACACTGGGTTAGTGCTA: 0.357 z-score
TTACATCTCAGTCTCGATTAGTGCTAG: 0.832 z-score
TTACGACTGGGGACTGGGTTAGTGCTA: -0.987 z-score
TTAGAACTGAGTATCGATTGGTGCTAG: -0.146 z-score
GACGGTTTCGGTATCGGGACGTGCTAG: 8.2 z-score
TCACCTCTCTTTCCAACACTGTGCTAG: 1.35 z-score
TCATTTATTTTTTTTATACTGTGCTAG: 1.63 z-score
ATCATTTTTGCTTACGATGCGTGCTAG: 1.03 z-score
TCATGTTTTAAATTCTAACTGTGCTAG: 0.762 z-score
GACGGACTGGGGACTGGCGACGTGCTA: -1.01 z-score
CTAGAGATTTTTCTCAACCGGTGCTAG: 0.0155 z-score
TTAGGGCTGGGTCTCGGTTAGTGCTAG: -1.14 z-score

Sample 5
Target: RING finger protein unkempt homolog, zinc fingers 1-6, SBP tag (UNK, Homo sapiens, UniProt Q9C0B0, residues 30-357)
UniProt Q9C0B0, sequence (30-357, looked up): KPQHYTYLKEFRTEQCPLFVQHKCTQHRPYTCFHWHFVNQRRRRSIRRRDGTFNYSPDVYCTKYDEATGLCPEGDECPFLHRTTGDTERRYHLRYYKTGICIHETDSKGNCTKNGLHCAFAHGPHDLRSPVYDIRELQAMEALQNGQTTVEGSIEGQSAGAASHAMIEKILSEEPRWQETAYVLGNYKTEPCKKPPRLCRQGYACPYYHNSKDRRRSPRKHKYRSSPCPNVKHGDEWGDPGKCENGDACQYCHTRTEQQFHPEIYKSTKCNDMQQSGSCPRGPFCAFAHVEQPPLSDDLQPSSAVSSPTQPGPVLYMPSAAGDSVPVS
Technique: RNA Bind-n-Seq
Molecule type: RNA
Medium: in vitro
Tested at: 100 nM
Notes: RNA with constant flanks, vertebrate orthologous sites, ends assumed
Reference: input RNA pool
Direction: higher = stronger binding
Endpoint: bound/input enrichment
All sequences stand within: GGGAGUUCUACAGUCCGACGAUC … CAACAGAGGAUUGAGCAUCA
CAGGGUGGGACCCGGGACCUACUGCUCAGUGGCCCGCUGGCCACCUCAGCUAAGCCACUUUAGGUCCAUUUUUUAUUUUAACAGUGCUCUUCCAUUCUGUGCGUAAGCCCGAGAUUUGGA: 0.889 ratio
AGGUUUAUUUCAUGCCCUGGACCCCUUACAGAACAGAUACACUUAUUGAGUACAACUCGCUCGAUGAUUUUCAAAACUCUCGACAGACUACGACGUAUAAACUACCCCAUCGGGUCGAUG: 0.459 ratio
CAAUUCCAUGGUGGAAGGCUCUGAGCUGAAAAAAGUUCGCUCCAAUUCUCGAGUCUACCAUAGAUACUUCCUGUUAGAUGCAGAUAUGCAGUCCUUAAGGUGGGAGCCUUCAAAGAAAGA: 0.412 ratio
AAUCAGUAGAAUUAGAUAAUACUAAAGUUACAGUUGAAAGGAUAUCCAAGUACAUCUUGGUAGUUACUAAAAGAAUUAGAGCUGUUAUUGCCUUGUAUUUAUAGCCCUUGUUUCAGGUUU: 0.476 ratio
AUAUGUAGAGAAAAAUUUGCUUUGACCCCACCCGUUUGUGAAAUUCCUUAGAAAUUUACUUGGAAUCUUCAUUUUUCUAAUUCAAGCUCACUGCAUUAGUCAUUUUUAGCCCGUAAUUAA: 1.55 ratio
AUUAGGUCAUGACCCUUAUAGGUUAGGUCAUGAUGCCUACCGGUUAGGACAGGACCCAUAUAGAUUAGGCCAUGAUCCCUAUAGACUAACUCCUGAUCCCUAUAGAAUGUCACCUAGACC: 0.883 ratio
UCAGUCUUCCUGUUAUGGUCAGCUUCAAAUCUACAGCAUUUAUGACAAAUGUAUUAUAUCUAGUUACGUUGAGUUUAAUAUUUUUUAUUAGCCUGUAAAUAAAUAAAGAUGGCAUCGUCC: 0.563 ratio
UCCCAGCACUUUGAUAAAAAGUGUGGACUGGUUGCUUGUAUUUUCUUUAUUCUUUUUAAUUGGUUUUAUUAUGUAUGCUACCAUUCGAAAUGAGAGUAUUAGGUGGCUCAUUCCAGGACA: 0.554 ratio
GUGUUUUGGUACAAAGUUGUGUACCAAUACUCAUCAUCUUUACAUUAUACCAACUAUCCCUAGAAAUAGGAGUUUAAUAUUUUUCAAAAUUUUACAUUGCUGUAUAUUCAAAAUUUUAAA: 0.486 ratio
AUUUAAAAUGUAGUUAGUUAUAUUUAAUGACCUCAUUCCUAAGUUCCUUUUUCAUUAAUGUAGCUUUCAUUUGUUAUUGCUGUUUGAAUAAUAUGAUUAAAUAGAAGGUUUGUGCCAGUA: 0.546 ratio
GUUGGUGCAGAGUGCUCUCUGUGCCGGUGCCCAUCAUCCUUUCUUCAUACCAACUGUCCCUAGUUCUAGGAAUUUAAUAUUUUUAAAAGUUUUACAUUGCUGUAUAUUCAAAGAUUUGUU: 0.79 ratio

Sample 6
Target: ATF2, bZIP domain (human)
Technique: DHFR protein complementation
Medium: yeast
Notes: single substitutions, most at no-binding floor
Reference: wild-type JUN-FOS pair
Direction: higher = stronger binding
Endpoint: binding fitness
Starting sequence: JUN, bZIP domain (human); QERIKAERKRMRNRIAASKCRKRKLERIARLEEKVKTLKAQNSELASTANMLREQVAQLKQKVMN; partner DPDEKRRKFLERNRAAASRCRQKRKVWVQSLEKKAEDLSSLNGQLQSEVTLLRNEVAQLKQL
S47C: -1.19 natural log
R30S: -1.35 natural log
T48H: -1.04 natural log
E33M: -1.49 natural log
K36M: -1.36 natural log
E33H: -1.1 natural log
V35W: -1.53 natural log
E54L: -1.34 natural log
M51N: -1.45 natural log
K34E: -1.49 natural log
A49S: -1.4 natural log
E44M: -1.38 natural log
A40E: -1.37 natural log
L38T: -1.53 natural log
I28K: -1.51 natural log
Q41F: -1.59 natural log
L45P: -1.52 natural log
S43I: -1.43 natural log
Q55R: -1.38 natural log
A49H: -1.5 natural log
Q55C: -1.37 natural log
K34V: -1.42 natural log
A29V: -1.44 natural log
E33N: -1.47 natural log

Excerpt of the above (sample 6):
Q55C: -1.37 natural log
L38T: -1.53 natural log
M51N: -1.45 natural log
K34V: -1.42 natural log
E33N: -1.47 natural log
A49S: -1.4 natural log
Q55R: -1.38 natural log
V35W: -1.53 natural log
R30S: -1.35 natural log
T48H: -1.04 natural log
E33H: -1.1 natural log
E54L: -1.34 natural log
E44M: -1.38 natural log
A49H: -1.5 natural log
